Measured values pooled from the literature.
Protocols differ between the studies behind these lines.
Medium: plasma

For `COc1cccc(-c2ccc(NC(=O)C3=C(C(=O)O)CCC3)c(F)c2)c1`, the half-life was 30.4 h (male human; oral, 30 mg, multiple doses, once daily).
For `CS(=O)(=O)n1cc2c(n1)CN([C@H]1CO[C@H](c3cc(F)ccc3F)[C@@H](N)C1)C2`, the half-life was 43.4 h (male human; oral, 100 mg, single dose, fasted, healthy volunteers).
With `Nc1ccc(-c2nc([C@H]3CCc4cc(-c5cc(Cl)ccc5-n5cnnn5)cc(=O)n43)c(F)[nH]2)c(F)n1` the half-life was 18.7 h (human; oral, 20 mg, single dose, fasted).
`CCCOc1ccc([C@H]2CNC(=O)N2c2ccc3[nH]cnc3c2)cc1` has a half-life of 7.67 h (human; oral, 800 mg, multiple doses, twice daily, fasted).
`Nc1cc(F)ccc1NC(=O)c1ccc(CNC(=O)/C=C/c2cccnc2)cc1` has a half-life of 19.4 h (human; oral, 40 mg, patients).
For `O=C1CCc2cc(OC[C@H](O)CN3CCN(c4ccc(C(F)(F)F)cc4)CC3)ccc2N1`, the half-life was 28 h (human; intravenous, 5 mg, single dose, healthy volunteers, infusion).
`CC(=O)N[C@H]1CC[C@H](NC(=O)CN2CCN(c3nncc(-c4ccc(C)cc4)n3)CC2)CC1` has a half-life of 10 h (male human; oral, 100 mg, single dose, fasted, healthy volunteers).
`C=CC(=O)Nc1cc(Nc2ncc(C(=O)OC(C)C)c(-c3cn(C)c4ccccc34)n2)c(OC)cc1N(C)CCN(C)C` has a half-life of 20 h (human; oral, single dose).
`CC1=C(C(=O)O)N2C(=O)[C@@H](NC(=O)[C@H](N)c3ccc(O)cc3)[C@H]2SC1` has a half-life of roughly 2 h (human; oral, 500 mg, healthy volunteers).
For `C[C@@H]1CCC[C@H](n2cnc(-c3cc(Cl)ccc3-n3cc(Cl)nn3)cc2=O)c2cc(ccn2)-c2c(cnn2C(F)F)NC1=O`, the half-life was 10.7 h (human; oral, 500 mg, single dose, fed, healthy volunteers).
`CNC(=O)c1ccccc1Sc1ccc2c(/C=C/c3ccccn3)n[nH]c2c1` has a half-life of 5.1 h (human; oral, 7 mg, single dose, fed).
`C#C[C@]1(CO)O[C@@H](n2cnc3c(N)nc(F)nc32)C[C@@H]1O` gave a half-life of 61.4 h (human; oral, 200 mg, single dose, fasted, healthy volunteers).
`C[C@H](N)C(=O)N1C[C@H](CCCB(O)O)[C@](N)(C(=O)O)C1` has a half-life of 5.7 h (human; oral, 150 mg, single dose, patients).
`O=C(O)COC[C@H]1CC[C@H](COC(=O)N(c2ccccc2)c2ccc(Cl)cc2)CC1` has a half-life of 23.2 h (human; oral, 100 µg, single dose, healthy volunteers).
`CNc1nc(Nc2ccc(-n3cnc(C)n3)c(OC)c2)nc2c1CC[C@H]2c1ccc(F)cc1` has a half-life of 22 h (human; oral, 1200 mg, single dose, healthy volunteers).
`O=C(c1nc2n(n1)[C@H](c1ccccc1)C[C@@H]2F)C1CC1` gave a half-life of 12.9 h (human; oral, 150 mg, single dose, fasted, healthy volunteers).
